Results collected from several papers.
Compare with care: the assays were run in different laboratories. ± marks the error that the study gave.
Technique: steady-state kinetics
B1: Tcur_2987 W376F (Thermomonospora curvata, UniProt D1A807); chain ACSEERAAGARPSATQTTGTATEPFHGPHQAGIATPPQAHAVFLGLDLRKGTGRKELGRLMRLLTDDARRLTQGRPALADPEPDLAPLPSRLTFTFGFGPGLFKAAGLEKQRPEGLRPLPPFKVDRLEDRWSGGDLLVQICCDDPITLAHALRMTVKDARAFTRVRWVQRGFRRSPGVQSSGATQRNLMGQLDGTVNPVPGTADFDQAVWVQDGPEWLRGGTTLVLRRIRMELEKWDEADPAGKEFAVGRRLTSGAPLTGRHEHDEPDFDAVDSAGFPVIAENAHIRLAHVDSPRLRMLRRPYNYDEGLTADGRSDAGLLFAAYQADIDRQFIPVQRRLDEGGDLLNLFTTPIGSAVFAIPPGCDENGWIGQGLLG
B2: protein Y93A (Thermus thermophilus, UniProt Q5SKR5); chain MSAPKPFVIGIAGGTASGKTTLAQALARTLGERVALLPMDHYYKDLGHLPLEERLRVNYDHPDAFDLALYLEHAQALLRGLPVEMPVYDFRAATRSPRRTPVRPAPVVILEGILVLYPKELRDLMDLKVFVDADADERFIRRLKRDVLERGRSLEGVVAQYLEQVKPMHLHFVEPTKRYADVIVPRGGQNPVALEMLAAKALARLARMGAA
B3: LYS1 C205S/K99M (Saccharomyces cerevisiae, UniProt P38998); chain MAAVTLHLRAETKPLEARAALTPTTVKKLIAKGFKIYVEDSPQSTFNINEYRQAGAIIVPAGSWKTAPRDRIIIGLKEMPETDTFPLVHEHIQFAHCYMDQAGWQNVLMRFIKGHGTLYDLEFLENDQGRRVAAFGFYAGFAGAALGVRDWAFKQTHSDDEDLPAVSPYPNEKALVKDVTKDYKEALATGARKPTVLIIGALGRSGSGAIDLLHKVGIPDANILKWDIKETSRGGPFDEIPQADIFINCIYLSKPIAPFTNMEKLNNPNRRLRTVVDVSADTTNPHNPIPIYTVATVFNKPTVLVPTTAGPKLSVISIDHLPSLLPREASEFFSHDLLPSLELLPQRKTAPVWVRAKKLFDRHCARVKRSSRL
B4: carbamoyl phosphate synthetase large subunit L720E (Escherichia coli, UniProt P00968); chain PKRTDIKSILILGAGPIVIGQACEFDYSGAQACKALREEGYRVILVNSNPATIMTDPEMADATYIEPIHWEVVRKIIEKERPDAVLPTMGGQTALNCALELERQGVLEEFGVTMIGATADAIDKAEDRRRFDVAMKKIGLETARSGIAHTMEEALAVAADVGFPCIIRPSFTMGGSGGGIAYNREEFEEICARGLDLSPTKELLIDESLIGWKEYEMEVVRDKNDNCIIVCSIENFDAMGIHTGDSITVAPAQTLTDKEYQIMRNASMAVLREIGVETGGSNVQFAVNPKNGRLIVIEMNPRVSRSSALASKATGFPIAKVAAKLAVGYTLDELMNDITGGRTPASFEPSIDYVVTKIPRFNFEKFAGANDRLTTQMKSVGEVMAIGRTQQESLQKALRGLEVGATGFDPKVSLDDPEALTKIRRELKDAGADRIWYIADAFRAGLSVDGVFNLTNIDRWFLVQIEELVRLEEKVAEVGITGLNADFLRQLKRKGFADARLAKLAGVREAEIRKLRDQYDLHPVYKRVDTCAAEFATDTAYMYSTYEEECEANPSTDREKIMVLGGGPNRIGQGIEFDYCCVHASLALREDGYETIMVNCNPETVSTDYDTSDRLYFEPVTLEDVLEIVRIEKPKGVIVQYGGQTPLKLARALEAAGVPVIGTSPDAIDRAEDRERFQHAVERLKLKQPANATVTAIEMAVEKAKEIGYPLVVRPSYVEGGRAMEIVYDEADLRRYFQTAVSVSNDAPVLLDHFLDDAVEVDVDAICDGEMVLIGGIMEHIEQAGVHSGDSACSLPAYTLSQEIQDVMRQQVQKLAFELQVRGLMNVQFAVKNNEVYLIEVNPRAARTVPFVSKATGVPLAKVAARVMAGKSLAEQGVTKEVIPPYYSVKEVVLPFNKFPGVDPLLGPEMRSTGEVMGVGRTFAEAFAKAQLGSNSTMKKHGRALLSVREGDKERVVDLAAKLLKQGFELDATHGTAIVLGEAGINPRLVNKVHEGRPHIQDRIKNGEYTYIINTTSGRRAIEDSRVIRRSALQYKVHYDTTLNGGFATAMALNADATEKVISVQEMHAQIK
B5: LYS12 D271N (Saccharomyces cerevisiae, UniProt P40495); chain SLTIGLIPGDGIGKEVIPAGKQVLENLNSKHGLSFNFIDLYAGFQTFQETGKALPDETVKVLKEQCQGALFGAVQSPTTKVEGYSSPIVALRREMGLFANVRPVKSVEGEKGKPIDMVIVRENTEDLYIKIEKTYIDKATGTRVADATKRISEIATRRIATIALDIALKRLQTRGQATLTVTHKSNVLSQSDGLFREICKEVYESNKDKYGQIKYNEQIVDSMVYRLFREPQCFDVIVAPNLYGDILSNGAAALVGSLGVVPSANVGPEIVIGEPCHGSAPDIAGKGIANPIATIRSTALMLEFLGHNEAAQDIYKAVDANLREGSIKTPDLGGKASTQQVVDDVLSRL
B6: cyc1 F95H (Streptomyces coelicolor, UniProt Q9K499); chain MHAFPHGTTATPTAIAVPPSLRLPVIEAAFPRQLHPYWPKLQETTRTWLLEKRLMPADKVEEYADGLCYTDLMAGYYLGAPDEVLQAIADYSAWHFVWDDRHDRDIVHGRAGAWRRLRGLLHTALDSPGDHLHHEDTLVAGFADSVRRLYAFLPATWNARFARHFHTVIEAYDREFHNRTRGIVPGVEEYLELRRLTFAHWIWTDLLEPSSGCELPDAVRKHPAYRRAALLSQEFAAWYNDLCSLPKEIAGDEVHNLGISLITHHSLTLEEAIGEVRRRVEECITEFLAVERDALRFADELADGTVRGKELSGAVRANVGNMRNWFSSVYWFHHESGRYMVDSWDDRSTPPYVNNEAAGEK
B7: MauG P127V (Paracoccus denitrificans, UniProt Q51658); chain EQARPADDALAALGAQLFVDPALSRNATQSCATCHDPARAFTDPREGKAGLAVSVGDDGQSHGDRNTPTLGYAALVPAFHRDANGKYKGGQFWDGRADDLKQQAGQVMLNPVEMAMPDRAAVAARLRDDPAYRTGFEALFGKGVLDDPERAFDAAAEALAAYQATGEFSPFDSKYDRVMRGEEKFTPLEEFGYTVFITWNCRLCHMQRKQGVAERETFTNFEYHNIGLPVNETAREASGLGADHVDHGLLARPGIEDPAQSGRFKVPSLRNVAVTGPYMHNGVFTDLRTAILFYNKYTSRRPEAKINPETGAPWGEPEVARNLSLAELQSGLMLDDGRVDALVAFLETLTDRRYEPLLEESRAAQKD

With `B1 (Tcur_2987 W376F)` the kcat was 119 ± 5 s⁻¹ (Nc1c(S(=O)(=O)O)cc(Nc2cccc(S(=O)(=O)CCOS(=O)(=O)O)c2)c2c1C(=O)c1ccccc1C2=O; pH 3, sigmoidal kinetics, together with: H2O2 1 mM).
For `pyc (Rhizobium etli, UniProt Q2K340)`, the kcat was 0.0617 ± 0.0002 s⁻¹ (Nc1ncnc2c1ncn2[C@@H]1O[C@H](COP(=O)(O)OP(=O)(O)OP(=O)(O)O)[C@@H](O)[C@H]1O; pH 7.8, 30 °C, no pyruvate, together with: NaHCO3 20 mM, acetyl CoA 0.25 mM, Mg2+ 5 mM).
`B2 (protein Y93A)` has a kcat of 4.5 ± 0.8 s⁻¹ (Nc1ccn([C@@H]2O[C@H](CO)[C@@H](O)[C@H]2O)c(=O)n1; pH 7.2, 25 °C, KCl 100 mM, together with: ATP 100–200 µM).
`enzyme (Daphnia magna, UniProt A0A0A7CK57)` has a kcat of 18.6 ± 0.6 s⁻¹ (N=C(N)NCCC[C@H](N)C(=O)O; pH 8.5).
`Ptb (Listeria monocytogenes, UniProt Q8Y7B7)` has a kcat of 519 ± 25.8 s⁻¹ (CCC(=O)SCCNC(=O)CCNC(=O)[C@H](O)C(C)(C)COP(=O)(O)OP(=O)(O)OC[C@H]1O[C@@H](n2cnc3c(N)ncnc32)[C@H](O)[C@@H]1OP(=O)(O)O; pH 7.5, 25 °C, apparent).
With `B3 (LYS1 C205S/K99M)` the kcat was 68 ± 4 s⁻¹ (NC(=O)C1=CN([C@@H]2O[C@H](COP(=O)(O)OP(=O)(O)OC[C@H]3O[C@@H](n4cnc5c(N)ncnc54)[C@H](O)[C@@H]3O)[C@@H](O)[C@H]2O)C=CC1; pH 7.2, 25 °C, together with: Lys and α-Kg).
For `B4`, the kcat was 2 ± 0.15 s⁻¹ (Nc1ncnc2c1ncn2[C@@H]1O[C@H](COP(=O)(O)OP(=O)(O)OP(=O)(O)O)[C@@H](O)[C@H]1O; pH 7.6, KCl 100 mM, together with: glutamine 10 mM, ornithine 10 mM).
The kcat of `alanine aminopeptidase (Neisseria meningitidis, UniProt Q9JYV4)` is reported as 3.84 ± 0.04 s⁻¹ (NC(=O)Cc1cc(=O)oc2cc(NC(=O)[C@@H](N)CC3CCCCC3)ccc12; pH 7.5, 37 °C).
With `B5 (LYS12 D271N)` the kcat was 0.026 ± 0.002 s⁻¹ (O=C(O)CC[C@H](C(=O)O)[C@@H](O)C(=O)O; pH 7.5, 25 °C, potassium acetate 100 mM, substrate as Mg complex, together with: NAD+ varied; Mg2+ 10 mM).
With `B6 (cyc1 F95H)` the kcat was 0.00172 ± 2e-05 s⁻¹ (CC(C)=CCC/C(C)=C/CC/C(C)=C/CO[P@@](=O)(O)OP(=O)(O)O; pH 6.5, 30 °C, together with: MgCl2 10 mM).
For `msrA (Clostridium oremlandii, UniProt A8MI53)`, the kcat was 84 ± 5 s⁻¹ (CN(C)c1ccc(N=Nc2ccc(S(=O)(=O)N[C@@H](CC[S@+](C)[O-])C(=O)O)cc2)cc1; pH 7.5, 37 °C, 50 mM NaCl, Km above tested range, together with: 20 mM DTT reductant).
For `B7 (MauG P127V)`, the kcat was 1.12 ± 0.09 s⁻¹ (O=C1O[C@H]([C@@H](O)CO)C(O)=C1O; pH 7.5, 25 °C, together with: H2O2 100 µM).
